# Results of several laboratories.
# ± marks the error that the study gave.
# Cell line: HepG2
SMILES,observed,method,time,CC50
CC(=O)Oc1ccc(OC(C)=O)c2c1CC1=C(C2)C(C)(C)CCC1,cytotoxicity,Alamar Blue,72 h,37 ± 2.1 µM
Nc1ncnc2c1ncn2[C@@H]1O[C@H](CO)[C@@H](O)[C@H]1F,cell growth or viability,SRB,11 days,110 µM
CN(C(=O)c1ccn2ncc(-c3ccc(C(N)=O)cc3)c2c1)C1CCC(C#N)CC1 (centres unmarked),,,96 h,> 50 µM
COc1ccc(-c2oc3ccc(-c4cc(OC)c(OC)c(OC)c4)cc3c2C#CC(C)(C)O)cc1,,,,> 31.6 µM
CCNC1=CC(=O)c2cc3c(cc2C1=O)CCCC3(C)C,cytotoxicity,Alamar Blue,72 h,149 ± 9 µM
CCOC(=O)c1cn(-c2nc(C(F)(F)F)n[nH]2)nn1,cell growth or viability,MTT,72 h,≥ 500 µM
COC(=O)C1C(C=NO)=Cc2cc3c(cc2C1c1cc(OC)c(OC)c(OC)c1)OCO3 (centres unmarked),cell growth or viability,resazurin,48 h,> 100 µM
NCC1OC(OC2C(N)CC(N)C(OC3OC(CO)C(O)C(N)C3O)C2OCCCCCCCCCCCCn2cc(CNc3nc(NCc4cn(CCCCCCCCCCCCOC5C(OC6OC(CN)C(O)CC6N)C(N)CC(N)C5OC5OC(CO)C(O)C(N)C5O)nn4)nc(NCc4cn(CCCCCCCCCCCCOC5C(OC6OC(CN)C(O)CC6N)C(N)CC(N)C5OC5OC(CO)C(O)C(N)C5O)nn4)n3)nn2)C(N)CC1O (centres unmarked),cell growth or viability,resazurin,48 h,10.5 µM
COC(=O)C1C(C=NN=CC2=Cc3cc4c(cc3C(c3cc(OC)c(OC)c(OC)c3)C2C(=O)OC)OCO4)=Cc2cc3c(cc2C1c1cc(OC)c(OC)c(OC)c1)OCO3 (centres unmarked),cell growth or viability,resazurin,48 h,> 100 µM
COC(=O)c1[nH]c(C(=O)OC)c2c1-c1c[nH]c3cccc(c13)C21CN(C)c2ccccc21 (racemic),cell growth or viability,ATP luminescence,72 h,> 10 µM
O=c1ccn([C@@H]2O[C@H](CO)[C@@H](O)[C@H]2F)c(=O)[nH]1,cell growth or viability,SRB,11 days,> 250 µM
Cc1ccc(NC(=O)N2CCCN3CCC(c4ccc(C#CC5(O)CCCCC5)cc4)C3C2)cc1 (centres unmarked),cell growth or viability,ATP luminescence,72 h,5.32 µM
COc1ccc(C(CC(=O)c2cccc(Oc3ccccc3)c2)C(N)=O)cc1 (centres unmarked),,,,> 300 µg/mL
OC[C@H]1O[C@@H](n2cnc3c(O)ncnc32)[C@H](F)[C@@H]1O,cell growth or viability,SRB,11 days,> 250 µM
NC[C@H]1O[C@H](O[C@H]2[C@H](OCCCCCCCCCCCCn3cc(CNc4nc(NCc5cn(CCCCCCCCCCCCO[C@@H]6[C@@H](O)[C@H](N)C[C@H](N)[C@H]6O[C@H]6O[C@H](CN)[C@@H](O)C[C@H]6N)nn5)nc(NCc5cn(CCCCCCCCCCCCO[C@@H]6[C@@H](O)[C@H](N)C[C@H](N)[C@H]6O[C@H]6O[C@H](CN)[C@@H](O)C[C@H]6N)nn5)n4)nn3)[C@@H](O)[C@H](N)C[C@@H]2N)[C@H](N)C[C@@H]1O,cell growth or viability,resazurin,48 h,44.8 µM
COC(=O)C1C(c2nc3cc(OC)ccc3[nH]2)=Cc2cc3c(cc2C1c1cc(OC)c(OC)c(OC)c1)OCO3 (centres unmarked),cell growth or viability,resazurin,48 h,51.2 µM
COc1ccc(NC(=O)N2CCCN3CCC(c4ccc(C#CC5CCCCC5)cc4)C3C2)cc1 (centres unmarked),cell growth or viability,ATP luminescence,72 h,7.4 µM
CNC(=O)c1ccc(-c2cnc3cnc(C(=O)N(C)c4ccc(Cl)cc4)cn23)cc1,,,96 h,27.3 ± 14.2 µM
CC(=O)Oc1cc(C)c(OC(C)=O)c2c1CC=C(CCC=C(C)C)C2,cytotoxicity,Alamar Blue,72 h,> 200 µM
COC(=O)c1[nH]c(C(=O)OC)c2c1-c1c[nH]c3ccc(Cl)c(c13)[C@@]21C=Nc2ccc(Cl)cc21,cell growth or viability,ATP luminescence,72 h,> 10 µM
CC(C)CCCc1ccc2c(c1)C(=O)C(Br)=C(Br)C2=O,cytotoxicity,Alamar Blue,72 h,14.7 ± 0.8 µM
CN(C(=O)c1ccn2ncc(-c3ccc(C(N)=O)cc3)c2c1)c1ccc(C#N)cn1,,,96 h,15.6 ± 8.62 µM
COC(=O)c1[nH]c(C(=O)OC)c2c1c1c3cc(Cl)ccc3[nH]c1c1[nH]c3ccc(Cl)cc3c12,cell growth or viability,ATP luminescence,72 h,4.6 µM
Nc1ccn([C@@H]2O[C@H](CO)[C@@H](O)[C@H]2F)c(=O)n1,cell growth or viability,SRB,11 days,> 250 µM
CNC(=O)CNc1cnc2ccc(-c3ccc(OC)c(OC)c3)cc2n1,,,96 h,26.7 ± 13.9 µM
COC(=O)c1[nH]c(C(=O)OC)c2c1-c1c[nH]c3ccc(Cl)c(c13)C21CNc2ccc(Cl)cc21 (racemic),cell growth or viability,ATP luminescence,72 h,> 10 µM
Cc1ccc(NC(=O)N2CCCN3CCC(c4ccc(C#CC5CCCC5O)cc4)C3C2)cc1 (centres unmarked),cell growth or viability,ATP luminescence,72 h,1.91 µM
CC(C)=CCCC1=CCC2=C(C1)C(=O)c1ccccc1C2=O,cytotoxicity,Alamar Blue,72 h,57.8 ± 1.7 µM
COc1cc(-c2ccc3oc(-c4ccsc4)c(C#CC4(O)CCCCC4)c3c2)cc(OC)c1OC,,,,> 100 µM
COc1ccccc1C(CC(=O)c1cccc(Oc2ccccc2)c1)C(N)=O (centres unmarked),,,,> 300 µg/mL
COc1cc(OC(C)=O)c2cc3c(cc2c1OC(C)=O)CCCC3(C)C,cytotoxicity,Alamar Blue,72 h,54.6 ± 5.3 µM
COc1cc(C2c3cc4c(cc3C(C(C)C)C3COC(=O)C23)OCO4)cc(OC)c1OC (centres unmarked),cell growth or viability,resazurin,48 h,> 100 µM

# Some of these lines once more:
SMILES,observed,method,time,CC50
CC(=O)Oc1cc(C)c(OC(C)=O)c2c1CC=C(CCC=C(C)C)C2,cytotoxicity,Alamar Blue,72 h,> 200 µM
Cc1ccc(NC(=O)N2CCCN3CCC(c4ccc(C#CC5(O)CCCCC5)cc4)C3C2)cc1 (centres unmarked),cell growth or viability,ATP luminescence,72 h,5.32 µM
CCOC(=O)c1cn(-c2nc(C(F)(F)F)n[nH]2)nn1,cell growth or viability,MTT,72 h,≥ 500 µM
CC(C)=CCCC1=CCC2=C(C1)C(=O)c1ccccc1C2=O,cytotoxicity,Alamar Blue,72 h,57.8 ± 1.7 µM
CC(=O)Oc1ccc(OC(C)=O)c2c1CC1=C(C2)C(C)(C)CCC1,cytotoxicity,Alamar Blue,72 h,37 ± 2.1 µM
